Published values from different studies.
Parts stem from different laboratories: compare values within a part only. Substitutions count along the parent as printed.

Series 1 — technique: competition protein-binding microarray; form: double-stranded DNA, one strand shown; matrix: in vitro; tested at: 2 µM; together with: Pho4 competitor, 0.05 µM; reading: higher = stronger binding; all sequences stand within: … GTCTTGATTCGCTTGACGCTGCTG
Target: Centromere-binding protein 1, full length, His-tagged (CBF1, Saccharomyces cerevisiae, UniProt P17106, residues 1-351)
Sequence of UniProt P17106 (whole entry, looked up): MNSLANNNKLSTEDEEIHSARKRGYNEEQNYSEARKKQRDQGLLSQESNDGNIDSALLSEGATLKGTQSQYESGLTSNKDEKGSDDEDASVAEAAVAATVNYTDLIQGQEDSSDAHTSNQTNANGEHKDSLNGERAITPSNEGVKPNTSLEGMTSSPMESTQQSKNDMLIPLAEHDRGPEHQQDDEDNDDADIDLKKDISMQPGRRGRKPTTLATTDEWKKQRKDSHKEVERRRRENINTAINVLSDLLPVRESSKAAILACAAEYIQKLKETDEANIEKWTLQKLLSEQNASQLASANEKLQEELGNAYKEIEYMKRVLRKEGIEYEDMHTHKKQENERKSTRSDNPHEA
Setting: whole 60-bp probe, lowest competitor level
For `AAGATCTAGGCCCATCACGCAGGCAGTTACTGAGAA`, the fluorescence intensity was 84.1 a.u.
`AAAGCGGTAATTTGGTCTGTGGGTGCAGATATCTAT` has a fluorescence intensity of 60 a.u.
With `GAGCGACTCAGGACGCGCGTGTGTTATTTTGGCCCC` the fluorescence intensity was 85 a.u.
`CGTCCTAGCGATTGACGGGTGGGTGCCATGAGGAAG` has a fluorescence intensity of 61.8 a.u.
`TACGACCAGATGAATCACATGTGTGGATGTTAACAA` gave a fluorescence intensity of 553 a.u.
`CCGTAGCCTCTTACCAATGTGACGGAGACCCCACCG` gave a fluorescence intensity of 62.2 a.u.
`AACCAGTCTTTCATCACCGTGATGGTAAATTATATA` has a fluorescence intensity of 178 a.u.
`AAATTACTAAGTTGTCTGGTGGGTGACGCCGTATGA` has a fluorescence intensity of 63.1 a.u.

Series 2 — technique: protein-binding microarray; form: double-stranded DNA, one strand shown; matrix: in vitro; tested at: 940 nM top; setting: 60-bp whole probe; together with: salmon DNA 0.4 mg/ml; baseline: random background probes; reading: higher = stronger binding; all sequences stand within: GCCTAGCAC … GTCTTGATTCGCTTGACGCTGCTG
Target: Interferon regulatory factor 5, full length, phosphomimetic (IRF5, Homo sapiens, UniProt Q13568-2, residues 1-514, S451D/S453D/S456D/S462D)
For `GACGGTATCGGATTTCGGGACGTGCTA`, “fitted relative affinity” read 3.18 z-score.
`CTCATTTTCGTTTTGTGTCTGTGCTAG` — result for “fitted relative affinity”: 3.09 z-score.
For `TTAATGTGTTCTTGGATTCGGTGCTAG`, “fitted relative affinity” read -0.107 z-score.
Under “fitted relative affinity”, `TTAGAACTGAGAATGGATTAGTGCTAG` is recorded as 0.298 z-score.
Under “fitted relative affinity”, `GACGGACTGGGCCTGGGGACGTGCTAG` is recorded as -0.813 z-score.
`GAATGTGTCTTAAATAGGGCAGTGCTA`: “fitted relative affinity” -0.288 z-score.
Under “fitted relative affinity”, `TTAGATTTCAGTTCCGATTAGTGCTAG` is recorded as 2.09 z-score.
`TTTTTTTTTTTTTTTTTACTGTGCTAG` — result for “fitted relative affinity”: 1.35 z-score.

Series 3 — technique: RNA Bind-n-Seq; form: RNA; matrix: in vitro; tested at: 1 µM; setting: whole 134-nt RNA, ends assumed; together with: 150 mM KCl; baseline: input library; reading: higher = stronger binding
Target: Ras GTPase-activating protein-binding protein 1, RRM domain (G3BP1, Homo sapiens, UniProt Q13283)
Sequence of UniProt Q13283 (whole entry, looked up): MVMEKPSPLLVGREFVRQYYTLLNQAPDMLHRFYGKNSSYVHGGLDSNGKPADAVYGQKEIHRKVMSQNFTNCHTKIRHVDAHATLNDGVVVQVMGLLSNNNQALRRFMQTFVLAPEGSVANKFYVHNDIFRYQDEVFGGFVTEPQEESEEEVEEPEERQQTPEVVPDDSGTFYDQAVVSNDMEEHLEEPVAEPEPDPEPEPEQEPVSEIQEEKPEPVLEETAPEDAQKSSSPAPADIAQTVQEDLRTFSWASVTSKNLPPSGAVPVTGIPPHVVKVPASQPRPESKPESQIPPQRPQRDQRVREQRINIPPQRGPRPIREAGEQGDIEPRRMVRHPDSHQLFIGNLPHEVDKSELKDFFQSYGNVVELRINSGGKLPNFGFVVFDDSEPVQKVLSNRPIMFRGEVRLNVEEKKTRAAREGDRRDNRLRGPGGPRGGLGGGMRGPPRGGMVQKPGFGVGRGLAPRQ
All sequences stand within: GGGAGUUCUACAGUCCGACGAUC … UGGAAUUCUCGGGUGUCAAGG
`GCAGGAAGUAAAAACAAAUGGAAAUGCUUCGGAUAGUGGCAGGGGUGGGGGUUGCUAAGGAAAGGGUGGGAUGGGAGUCGGUAAAGAGUU` has a log2 enrichment of 1.29.
The log2 enrichment of `CACAGACAACACGCACCCACACAGACACAGAGGGAAGGGGUUGGGAUGGGGACGGGGUGCACAGCAGGGCGGGGUAGGACCCCAGCCCCU` is reported as 0.124.
The log2 enrichment of `UGGGAGGUGGAUUUUGUUUAUUUUUUUAGCUCAUUUCCAGGGGUGGGAAUUUUUUUUUAAUAUGUGUCAUGAAUAAAGUUGUGUUUGAAA` is reported as 1.99.
The log2 enrichment of `GUCCUGUGCUACACAUCGUAUGUACCGAAUCGGGGAAAAAGGGGAAAAAGGAAAAAGGAAAGUAUUAUGUUACGCCGUUCGGAUCUGCAC` is reported as 0.0988.
For `CUGUGCUACACAUCGUAUGUACCGAAUCGGUUUUUUUGGGGUUUUUUUGGGGUUUUUUUGGAAAGUAUUAUGUUACGCCGUUCGGAUCUG`, the log2 enrichment was -0.286.
`AGUCCUGUGCUACACAUCGUAUGUACCGAAUCGGGUUUUUGGUUUUUGGGUUUUUGGAAAGUAUUAUGUUACGCCGUUCGGAUCUGCACU` gave a log2 enrichment of -0.102.
`CUGUGCUACACAUCGUAUGUACCGAAUCGGGGUUUGGGGAAAAAAAGGGGUUUUUUUGGGGAAAGUAUUAUGUUACGCCGUUCGGAUCUG` has a log2 enrichment of 1.06.
With `GUCCUGUGCUACACAUCGUAUGUACCGAAUCGGGAAAAAAAGGGAGGGUUUUUUUGGGAAAGUAUUAUGUUACGCCGUUCGGAUCUGCAC` the log2 enrichment was 0.229.

Series 4 — target: inorganic phosphate, free oxyanion; technique: microfluidic competitive inhibition; matrix: in vitro, cell-free expressed; tested at: not given; reading: lower = stronger binding
Setting: derived from inhibition constants, unchanged parent 615000 nM
Starting sequence: PafA, mature enzyme, eGFP fusion (Elizabethkingia meningoseptica, UniProt Q9KJX5); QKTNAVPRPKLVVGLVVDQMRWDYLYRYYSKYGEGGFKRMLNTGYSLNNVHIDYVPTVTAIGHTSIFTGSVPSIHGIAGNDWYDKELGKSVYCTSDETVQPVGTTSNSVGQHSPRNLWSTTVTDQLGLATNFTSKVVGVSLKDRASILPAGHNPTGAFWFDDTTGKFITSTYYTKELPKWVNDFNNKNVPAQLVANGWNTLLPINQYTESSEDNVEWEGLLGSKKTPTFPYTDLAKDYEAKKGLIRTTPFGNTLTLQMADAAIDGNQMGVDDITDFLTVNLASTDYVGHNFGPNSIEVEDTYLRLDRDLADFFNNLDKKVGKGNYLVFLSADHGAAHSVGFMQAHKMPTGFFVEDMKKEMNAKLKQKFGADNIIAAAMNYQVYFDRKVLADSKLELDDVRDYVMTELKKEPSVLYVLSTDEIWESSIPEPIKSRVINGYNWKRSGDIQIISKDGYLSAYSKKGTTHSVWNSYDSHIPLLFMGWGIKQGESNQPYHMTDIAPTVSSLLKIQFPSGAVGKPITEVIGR
Under “phosphate dissociation constant”, `E212V` is recorded as 573 µM.
For `K322G`, “phosphate dissociation constant” read 540 µM.
`A195G`: “phosphate dissociation constant” 554 µM.
For `T228V`, “phosphate dissociation constant” read 547 µM.
`H289G`: “phosphate dissociation constant” 828 µM.

Series 5 — target: CCNB2, cyclin fold, Cln2 fusion (human); technique: yeast growth competition, sequencing; matrix: yeast; setting: strong parent motif; baseline: not given; reading: higher = stronger binding; starting sequence: viral docking peptide; YKVKRRLVFGADD
For `YKVKRRLVKGADD [F9K]`, “normalised enrichment score” read 0.488.
`YSVKRRLVFGADD [K2S]`: “normalised enrichment score” 2.12.
Under “normalised enrichment score”, `YKVKVRLVFGADD [R5V]` is recorded as 0.993.
`YKVKRRYVFGADD [L7Y]` — result for “normalised enrichment score”: 0.509.
`YKVKRRLVFAADD [G10A]`: “normalised enrichment score” 1.91.
For `YKGKRRLVFGADD [V3G]`, “normalised enrichment score” read -0.143.
`YKVKRTLVFGADD [R6T]`: “normalised enrichment score” 0.716.
`YKVKRRLHFGADD [V8H]` — result for “normalised enrichment score”: 1.32.
Under “normalised enrichment score”, `YKVKRRLVFGAPD [D12P]` is recorded as 1.39.
For `YKVIRRLVFGADD [K4I]`, “normalised enrichment score” read 0.105.
For `YKVKRRLVFMADD [G10M]`, “normalised enrichment score” read 1.25.
`YKVKRRKVFGADD [L7K]` — result for “normalised enrichment score”: 0.859.
Under “normalised enrichment score”, `YKHKRRLVFGADD [V3H]` is recorded as 0.148.
`YKVKRRLVFGAQD [D12Q]`: “normalised enrichment score” 0.961.
For `YKVKRRLVFGLDD [A11L]`, “normalised enrichment score” read 1.59.
Under “normalised enrichment score”, `YKVKRRLVFGAHD [D12H]` is recorded as 0.891.
Under “normalised enrichment score”, `YKVKPRLVFGADD [R5P]` is recorded as -0.286.
`YMVKRRLVFGADD [K2M]`: “normalised enrichment score” 2.07.
For `YKVKKRLVLGADD [R5K F9L]`, “normalised enrichment score” read 0.402.
Under “normalised enrichment score”, `YKVKRKLVFGADD [R6K]` is recorded as 1.78.
`YKVERRLVFGADD [K4E]`: “normalised enrichment score” 0.0822.
For `YKVMRRLVFGADD [K4M]`, “normalised enrichment score” read -0.384.
`YKVKRRLVFGAAD [D12A]`: “normalised enrichment score” 1.21.
Under “normalised enrichment score”, `YKVKWRLVFGADD [R5W]` is recorded as 0.19.
For `YKVKRRLVVGADD [F9V]`, “normalised enrichment score” read 0.475.

Single results of other studies
Under cross-linked residues, `SDHA (Homo sapiens, UniProt P31040)` is recorded as “K517 to K139” (H1-8 (Homo sapiens, UniProt Q8IZA3); cross-linking MS; cells; together with: BSPNO).

For quick reference, copied from above (series 5):
`YKVKRRKVFGADD [L7K]` — result for “normalised enrichment score”: 0.859.
Under “normalised enrichment score”, `YKHKRRLVFGADD [V3H]` is recorded as 0.148.
`YKVKRRLVFGAQD [D12Q]`: “normalised enrichment score” 0.961.
